Published values gathered from unrelated publications.
Parts stem from different laboratories: compare values within a part only. Changes are numbered by the printed parent chain.

Sample 1
Target: Sal-like protein 4, full length isoform A (SALL4, Homo sapiens, UniProt Q9UJQ4, residues 1-1053)
UniProt Q9UJQ4, sequence (whole entry, looked up): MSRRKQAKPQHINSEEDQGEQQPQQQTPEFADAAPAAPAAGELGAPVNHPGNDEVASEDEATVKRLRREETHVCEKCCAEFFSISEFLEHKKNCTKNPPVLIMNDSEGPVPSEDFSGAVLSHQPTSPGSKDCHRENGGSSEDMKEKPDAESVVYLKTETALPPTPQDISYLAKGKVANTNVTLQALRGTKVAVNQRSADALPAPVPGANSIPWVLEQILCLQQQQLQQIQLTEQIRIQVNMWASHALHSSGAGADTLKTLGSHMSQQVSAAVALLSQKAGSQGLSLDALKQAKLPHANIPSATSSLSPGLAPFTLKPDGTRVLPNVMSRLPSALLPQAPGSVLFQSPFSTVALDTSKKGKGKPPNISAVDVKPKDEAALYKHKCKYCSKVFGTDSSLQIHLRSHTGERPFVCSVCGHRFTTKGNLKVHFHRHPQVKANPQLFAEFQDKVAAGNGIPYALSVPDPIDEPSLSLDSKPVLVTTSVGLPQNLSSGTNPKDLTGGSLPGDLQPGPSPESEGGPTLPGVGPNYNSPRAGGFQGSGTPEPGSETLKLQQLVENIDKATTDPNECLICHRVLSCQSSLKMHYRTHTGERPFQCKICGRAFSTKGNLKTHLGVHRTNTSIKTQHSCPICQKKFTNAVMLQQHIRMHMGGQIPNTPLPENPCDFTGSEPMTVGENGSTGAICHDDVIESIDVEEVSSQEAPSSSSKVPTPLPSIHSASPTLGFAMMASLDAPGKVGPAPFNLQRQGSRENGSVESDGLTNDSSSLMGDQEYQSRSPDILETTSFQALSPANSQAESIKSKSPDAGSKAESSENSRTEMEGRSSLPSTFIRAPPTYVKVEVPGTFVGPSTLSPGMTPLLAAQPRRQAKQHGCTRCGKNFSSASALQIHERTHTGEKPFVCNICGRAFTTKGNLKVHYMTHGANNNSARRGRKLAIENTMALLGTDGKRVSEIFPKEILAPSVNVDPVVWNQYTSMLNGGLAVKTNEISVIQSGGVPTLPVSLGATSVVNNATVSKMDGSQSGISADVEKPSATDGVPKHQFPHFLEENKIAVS
Method: universal PBM
Molecule type: double-stranded DNA, one strand shown
Matrix: in vitro
Tested at: 600 nM
Notes: 8-mer, flanks averaged, mean of replicates
Direction: higher = stronger binding
With `AGCTTATA` the E-score was 0.276.
With `CACCGCAA` the E-score was -0.049.
The E-score of `GGGATTGA` is reported as -0.0314.
For `GTCCATGA`, the E-score was -0.00671.
The E-score of `GAGCTCCC` is reported as -0.24.
For `GAACGGCA`, the E-score was -0.075.
The E-score of `GGTCAAAA` is reported as 0.104.
For `TCGGTAGA`, the E-score was 0.0402.
`GCGGTCGA` has an E-score of -0.157.
The E-score of `TAACCCAA` is reported as 0.106.
The E-score of `AGCACATC` is reported as -0.0586.
For `TCGTGAAA`, the E-score was 0.0357.
`ACCTTCCG` gave an E-score of -0.128.
For `ACGATGTG`, the E-score was 0.102.
`AGCTACGG` has an E-score of -0.24.
With `ATCCGTTA` the E-score was 0.157.
The E-score of `CGCTGCTA` is reported as -0.239.

Sample 2
Target: CCNB1, cyclin fold, Cln2 fusion (human)
Method: yeast growth competition, sequencing
Matrix: yeast
Notes: strong parent motif
Baseline: not given
Direction: higher = stronger binding
Starting sequence: PKMYT1 docking peptide (human); SFEPRNLLSLFED
`SCEPRNLLSLFED [F2C]` — result for “normalised enrichment score”: 0.887.
For `SFEPRNLLSLFER [D13R]`, “normalised enrichment score” read 0.49.
For `SFEPRNLLSLTED [F11T]`, “normalised enrichment score” read 0.0516.
Under “normalised enrichment score”, `SFEPRRLLSLFED [N6R]` is recorded as 0.619.
For `SFEPRNLLTLFED [S9T]`, “normalised enrichment score” read 1.07.
`SFEPRNCLSLFED [L7C]` — result for “normalised enrichment score”: -0.0781.
For `SFEPRNLLSMFED [L10M]`, “normalised enrichment score” read 1.21.
`SFEPRNLLSAFED [L10A]`: “normalised enrichment score” 1.16.
`SFEPRPLLSLFED [N6P]` — result for “normalised enrichment score”: 0.0226.
`SFEPRNNLSLFED [L7N]` — result for “normalised enrichment score”: -0.0288.
Under “normalised enrichment score”, `RFEPRNLLSLFED [S1R]` is recorded as 0.877.
For `SVEPRNLLSLFED [F2V]`, “normalised enrichment score” read 0.208.
`SFEPRNALSLFED [L7A]` — result for “normalised enrichment score”: 0.0612.
`SFEPRNLLSLFKD [E12K]` — result for “normalised enrichment score”: -0.222.
For `SFEPRNLLPLFED [S9P]`, “normalised enrichment score” read 2.73.
`SFEPRNILSLFED [L7I]` — result for “normalised enrichment score”: 0.983.
For `SFEPRCLLSLFED [N6C]`, “normalised enrichment score” read 2.
`SFPPRNLLSLFED [E3P]` — result for “normalised enrichment score”: 0.806.
`SFEPRTLLSLFED [N6T]` — result for “normalised enrichment score”: -0.222.
Under “normalised enrichment score”, `SFEGRNLLSLFED [P4G]` is recorded as -0.27.
For `SFEPRNQLSLFED [L7Q]`, “normalised enrichment score” read -0.352.
`SFCPRNLLSLFED [E3C]` — result for “normalised enrichment score”: 1.09.
Under “normalised enrichment score”, `SFEPRNLLSLFEM [D13M]` is recorded as 0.642.

Sample 3
Target: Ras GTPase-activating protein-binding protein 1, C-terminal RGG region (G3BP1, Homo sapiens, UniProt Q13283)
UniProt Q13283, sequence (whole entry, looked up): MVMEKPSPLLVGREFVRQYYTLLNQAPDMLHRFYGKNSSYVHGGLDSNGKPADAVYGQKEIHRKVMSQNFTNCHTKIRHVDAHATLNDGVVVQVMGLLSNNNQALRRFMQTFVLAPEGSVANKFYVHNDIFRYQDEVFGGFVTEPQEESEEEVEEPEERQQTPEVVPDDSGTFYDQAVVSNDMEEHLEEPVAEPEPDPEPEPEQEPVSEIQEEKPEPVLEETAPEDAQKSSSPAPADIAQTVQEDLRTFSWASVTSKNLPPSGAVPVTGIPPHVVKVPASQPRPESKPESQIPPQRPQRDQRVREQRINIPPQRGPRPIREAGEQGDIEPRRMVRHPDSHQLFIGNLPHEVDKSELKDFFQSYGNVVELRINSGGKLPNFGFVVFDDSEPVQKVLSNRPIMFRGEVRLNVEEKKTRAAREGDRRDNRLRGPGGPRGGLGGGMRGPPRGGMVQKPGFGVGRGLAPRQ
Method: RNA Bind-n-Seq
Molecule type: RNA
Matrix: in vitro
Tested at: 1 µM
Notes: whole 134-nt RNA, ends assumed
Added: 150 mM KCl
Baseline: input library
Direction: higher = stronger binding
Shared flanks, not repeated: GGGAGUUCUACAGUCCGACGAUC … UGGAAUUCUCGGGUGUCAAGG
`CUCAAGUCCUGUGCUACACAUCGUAUGUACCGAAUCGGGUGGGAAAGGGUGGGAAAGUAUUAUGUUACGCCGUUCGGAUCUGCACUUCCA` has a log2 enrichment of 1.68.
The log2 enrichment of `GUCCUGUGCUACACAUCGUAUGUACCGAAUCGGGGAAAGGGGUUUUUUUGGGGAGGGGAAAGUAUUAUGUUACGCCGUUCGGAUCUGCAC` is reported as 2.21.
`CUCAAGUCCUGUGCUACACAUCGUAUGUACCGAAUCGGGCGGGGCGGGGCGGGGAAAGUAUUAUGUUACGCCGUUCGGAUCUGCACUUCC` has a log2 enrichment of 2.41.
`UCAAGUCCUGUGCUACACAUCGUAUGUACCGAAUCGGAAAGGGAAAGGGGAAAGGAAAGUAUUAUGUUACGCCGUUCGGAUCUGCACUUC` has a log2 enrichment of -1.58.
`UCCUGUGCUACACAUCGUAUGUACCGAAUCGGGGUUUGGGGUUUGGGGUUUUUUUGGGGAAAGUAUUAUGUUACGCCGUUCGGAUCUGCA` has a log2 enrichment of 2.99.
With `UGGGAGGUGGAUUUUGUUUAUUUUUUUAGCUCAUUUCCAGGGGUGGGAAUUUUUUUUUAAUAUGUGUCAUGAAUAAAGUUGUUUUUGGAA` the log2 enrichment was 2.25.
`UCCUGUGCUACACAUCGUAUGUACCGAAUCGGGGAAAAAAAGGGGUUUUUGGGGUGGGGAAAGUAUUAUGUUACGCCGUUCGGAUCUGCA` has a log2 enrichment of 1.39.
For `CCUGUGCUACACAUCGUAUGUACCGAAUCGGGGUUUUUGGGGAAAAAGGGGAAAAAGGGGAAAGUAUUAUGUUACGCCGUUCGGAUCUGC`, the log2 enrichment was 0.793.
The log2 enrichment of `CUGUGCUACACAUCGUAUGUACCGAAUCGGGGUUUUUUUGGUUUUUUUGGGUUUUUUUGGGAAAGUAUUAUGUUACGCCGUUCGGAUCUG` is reported as -1.54.

Sample 4
Target: RNA binding protein fox-1 homolog 2, RRM domain, GST-SBP tag (RBFOX2, Homo sapiens, UniProt O43251-10, residues 100-194)
Method: RNA Bind-n-Seq
Molecule type: RNA
Matrix: in vitro
Tested at: 365 nM
Notes: natural RNA segment, single round, ends assumed
Baseline: no-protein control
Direction: higher = stronger binding
Shared flanks, not repeated: GGGAGUUCUACAGUCCGACGAUC … UGGAAUUCUCGGGUGCCAA
Target sequence (chain): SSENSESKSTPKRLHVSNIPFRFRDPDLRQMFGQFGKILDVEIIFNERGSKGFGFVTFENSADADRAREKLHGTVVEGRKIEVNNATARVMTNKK
Under “RBNS enrichment (R)”, `AUUUAAGUGUUUUAGAUAAAUUUAAGUUACUCCAUAUGAAAUGUUUAAUUUCAGCUACUGUGAAUUCUUUCGAUCAGUCCUUUGCUUUUUUAAAAAAUCUUUUCCAUCGU` is recorded as 1.14.
`ACCCAAGCUGGUGGGCAGGGGGCUGGAAGGCACCAGGCCUCAGGAGGAGCCCCAUAGUCCCGCCUGCAGCCUGUAACCAUCGGCUGGGCCCUGCAAGGCCCACACUCACG` — result for “RBNS enrichment (R)”: 0.393.
`UUGAGGCUUAAACAAGCCAACAUAUGAAUAUAUGUUUUGUCUCGCUAUACUGCACUUACGCUAUCCAGUUGCAGGUAAUUUUUUGUCUGCUAGUAGUGUUCUAGAUUAUG` — result for “RBNS enrichment (R)”: 0.405.
Under “RBNS enrichment (R)”, `CAUUCCUAUCCUUCCUGGUACUGCAGUCAACCAAAGAUGGCAUGACUUACCUGCGCAGAUCUGGAAGCCUUGAACUCGGAGUGCUGACUCUGCUACAUGGUACAGCUACC` is recorded as 0.813.
Under “RBNS enrichment (R)”, `GGUUAAGGAUGUAGUUCCUUUGUAAGGGUGGGCAGGCCUCGUAAGAAAGAUGUAGCAGCAUAUUCACUAUCCGUUAAUCCUUCUUUCUUUGAGGCUGGAACUUGCUCUCU` is recorded as 0.286.
For `AGGAUCAAUAUUUUGCUUUUUAACAAGGAUAUUUAUGUAAUAAGAAACUUUGCCUUAGGUAGGUGUUGGCCAGAAAAGUCCAGAUUUCUCUGUGACCUCACCCUGGCCUC`, “RBNS enrichment (R)” read 0.401.
Under “RBNS enrichment (R)”, `AGAUCUCACAGAUGUCAGAACUGCUGGAACUAUGAAAUGGGGUAUAUAACCACGACUCUGGUGGGGAAAACCGUUUUUUAAAGGACACACACACACACAGCGAUGCAUCU` is recorded as 1.32.
`ACACGUUACUCCAGCGCUACUCUUGCCAUUACGCCCCGUGUUUCCGAGCACAGCUGGUCCUACCCCAAGUCAUGGUGUGCUGAGUGACUGACUGAGGGGCCAUUGAGAGC`: “RBNS enrichment (R)” 0.72.

Repeated from above (sample 2):
For `SFEPRNLLSLFER [D13R]`, “normalised enrichment score” read 0.49.
Under “normalised enrichment score”, `SFEPRRLLSLFED [N6R]` is recorded as 0.619.
For `SVEPRNLLSLFED [F2V]`, “normalised enrichment score” read 0.208.
For `SFEPRNQLSLFED [L7Q]`, “normalised enrichment score” read -0.352.
